# Published values pooled from the literature.
# Numbered parts are unrelated; each lists some results of a single study. Positions count from the first letter of the parent shown.

# Study 1 — method: RNAcompete; molecule type: RNA; matrix: in vitro; concentration: 20 nM; setting: 7-mer, probes averaged, single round; reference: mean of 7-mers; direction: higher = stronger binding
# Target: PABPC1L2, full length, GST fusion (mouse, UniProt A0ABA7IW68)
# Residues (chain): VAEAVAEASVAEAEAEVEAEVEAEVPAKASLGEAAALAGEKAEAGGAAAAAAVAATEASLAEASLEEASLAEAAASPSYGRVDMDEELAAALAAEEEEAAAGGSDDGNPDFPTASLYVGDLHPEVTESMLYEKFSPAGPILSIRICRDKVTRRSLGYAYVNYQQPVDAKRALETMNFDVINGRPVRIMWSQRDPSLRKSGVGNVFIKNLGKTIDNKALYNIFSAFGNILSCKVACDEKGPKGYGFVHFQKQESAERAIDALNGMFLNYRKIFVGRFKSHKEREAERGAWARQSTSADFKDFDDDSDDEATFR
Strand,7-mer Z-score
GUACUCA,-0.122
AGGUUUC,-0.385
ACACAAA,1.78
AAUACCU,0.119
CCGGGGA,-0.0391
UUAUAAC,-0.0754
CUCGAGC,-0.356
AUACUUC,-0.137
UCACCAA,-0.0246
UUAUCGU,-0.266
UUUGCUU,-0.441
GGCUAGA,0.173
ACCAUAC,-0.144
GCAUUCA,-0.0355
CAUGAUG,-0.159
ACGAAAC,0.398
CCUUCCU,-0.449
AAGCAGA,0.287
UAAGUUG,-0.222
UAAGACU,-0.0428
UACUCCG,-0.191
CCCAUUG,-0.325
ACACUGG,0.0787
UUAGAAU,-0.132
UAAUAGC,-0.18

# Study 2 — method: DHFR PCA, deep sequencing; matrix: yeast; with: (+)-ABA 2500 µM; reference: wild-type fitted maximum; direction: higher = stronger binding
# Target: ABI1, truncated, D143A, DHFR fusion (Arabidopsis thaliana)
# Setting: methotrexate growth selection, single substitutions
# Starting sequence: PYL1, truncated, DHFR fusion (Arabidopsis thaliana); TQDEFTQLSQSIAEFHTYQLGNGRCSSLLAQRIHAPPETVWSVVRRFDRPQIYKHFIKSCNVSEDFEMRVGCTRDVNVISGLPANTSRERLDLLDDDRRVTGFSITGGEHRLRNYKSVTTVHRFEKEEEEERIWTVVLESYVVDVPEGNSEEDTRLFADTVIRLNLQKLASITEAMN; partner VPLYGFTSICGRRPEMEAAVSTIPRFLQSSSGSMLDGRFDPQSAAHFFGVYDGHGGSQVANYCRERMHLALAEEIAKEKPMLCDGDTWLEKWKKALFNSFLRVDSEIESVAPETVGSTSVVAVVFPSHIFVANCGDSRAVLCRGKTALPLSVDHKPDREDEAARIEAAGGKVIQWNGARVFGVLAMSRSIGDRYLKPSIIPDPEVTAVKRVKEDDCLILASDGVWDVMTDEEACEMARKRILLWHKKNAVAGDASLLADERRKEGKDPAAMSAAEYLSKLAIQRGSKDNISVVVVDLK
Change,relative binding score [%]
G148F,84.6
Y53W,96.9
I172M,90.7
L166F,81.1
V143P,1.49
Q10S,103
D92S,86.2
V40I,87.2
V136P,14.5
H122M,82.1
S27C,87.9
T106G,83.6
R155Q,94.5
L91W,80.3
V136G,61.9
E109S,103
H55S,96.1
Y18H,89.3
K54D,-28.6
R46H,84.2
S9D,101
A170K,99.7
A175F,96.2
E174L,89.4
T17P,95.5

# Study 3 — method: RNA Bind-n-Seq; molecule type: RNA; matrix: in vitro; concentration: 365 nM; reference: no-protein control; direction: higher = stronger binding
# Target: RNA binding protein fox-1 homolog 2, RRM domain, GST-SBP tag (RBFOX2, Homo sapiens, UniProt O43251-10, residues 100-194)
# Setting: natural RNA segment, single round, ends assumed
# All sequences stand within: GGGAGUUCUACAGUCCGACGAUC … UGGAAUUCUCGGGUGCCAA
# Construct (chain): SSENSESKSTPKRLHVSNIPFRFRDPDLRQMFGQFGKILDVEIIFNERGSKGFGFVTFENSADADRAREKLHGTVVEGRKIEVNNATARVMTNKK
Strand,RBNS enrichment (R)
GAAGACUGCCUUUCCUGGUAGGCCUGCCAGACAGAGCGCCCUUUACAAGACACACCUCAAGCUUUACCAGCUCAAGCGUCUGUCCUUGGAGGCUCAGCAGAUUUAUUUAA,0.207
UAUUUAUCUUGUACAUAUGUAUUUAGAAAACUUUUAAACUUGAAAAAUAAAUAAUACUUAAUGUUAAGUGUGUGUUUAUAUGAAACGUGUGUCUGGGAGUGAACUGCUUA,0.561
GUCUGUCUUUGUCCAGGUUUCAGACAUUUCUAGGUUGGGGAAGAUGCUAUUGGGAAACCUCUUCUCCGUGACACAGAAUGUUCUGGGUGGGAGCCGCCCUUCUUCAUCUU,0.327
UUGGACUGUUGCUUCUUUGCCUGUUCCUGCUUUCUCUUUCUGUCUGGAUAGUCAGGAAAAGAUUUAAUGUUUAAUAUUUAAACAAAAUAUUUAAUGUCUAUACAGUAAAA,0.571
AGAGAGGGAGAGAAGGCCCUUGCCACGUCCGGGGUGCAGGGUCUACCCACAGAACACUGUGAGUGGUGAGCACCAAGAUGGGUUGCCAGCCUCAUUUGCUCUUUGAACGA,0.297
CAUCUGCCAUGCCCUAGCCACUAGAGUCUGGGUUCCAGCAGCUACCUGGGGACAUGUGGCUGCUCUAUUGUCUUACUGCGUCCCACAAUAUCUGAAUGUCUCAAUCCAAA,0.504
AAAACACAAACCUUUUGGGUUAAAAGCUUUAACAUCUAUUAGGAAGAAUUUGUCCUGUGGGUUUGGAAUCUUGGAUUUUCCCCCUUUAUGAACUGUACUGGCUGUUGACC,0.469
AAAAAAAAGUCAAAAGAUAGAGAAUACAAGAAAAGUUUUUGGGAUAUAAUUUGAAUGACUGUGAAAACAUAUGACCUUUGAUAACGAACUCAUUUGCUCACUCCUUGACA,0.634

# Study 4 — method: RNA Bind-n-Seq; molecule type: RNA; matrix: in vitro; concentration: 1 µM; setting: whole 134-nt RNA, ends assumed; with: 150 mM KCl; reference: input library; direction: higher = stronger binding
# Target: Ras GTPase-activating protein-binding protein 1, RRM domain (G3BP1, Homo sapiens, UniProt Q13283)
# Chain of UniProt Q13283 (whole entry, looked up): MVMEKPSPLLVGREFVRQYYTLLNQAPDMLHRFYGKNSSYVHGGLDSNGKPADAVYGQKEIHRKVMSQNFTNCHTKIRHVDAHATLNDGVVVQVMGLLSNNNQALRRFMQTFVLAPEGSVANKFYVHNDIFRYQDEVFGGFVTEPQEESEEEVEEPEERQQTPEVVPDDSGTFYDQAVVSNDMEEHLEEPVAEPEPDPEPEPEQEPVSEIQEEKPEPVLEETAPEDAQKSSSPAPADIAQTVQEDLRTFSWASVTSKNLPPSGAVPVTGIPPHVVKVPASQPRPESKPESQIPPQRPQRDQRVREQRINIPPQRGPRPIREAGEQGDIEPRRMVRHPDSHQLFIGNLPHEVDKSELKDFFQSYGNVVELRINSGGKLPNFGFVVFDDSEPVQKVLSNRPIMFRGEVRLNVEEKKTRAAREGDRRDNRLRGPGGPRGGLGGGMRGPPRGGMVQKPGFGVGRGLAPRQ
# All sequences stand within: GGGAGUUCUACAGUCCGACGAUC … UGGAAUUCUCGGGUGUCAAGG
Strand,log2 enrichment
GUCCUGUGCUACACAUCGUAUGUACCGAAUCGGGGUUUGGGGAGGGGAAAAAAAGGGGAAAGUAUUAUGUUACGCCGUUCGGAUCUGCAC,0.725
GUCCUGUGCUACACAUCGUAUGUACCGAAUCGGGUUUUUUUGGGAAAAAGGGUUUGGGAAAGUAUUAUGUUACGCCGUUCGGAUCUGCAC,-0.178
AGUCCUGUGCUACACAUCGUAUGUACCGAAUCGGGAAAAAGGGAAAGGGUUUUUGGGAAAGUAUUAUGUUACGCCGUUCGGAUCUGCACU,0.265
AAGUCCUGUGCUACACAUCGUAUGUACCGAAUCGGGGAAAAGGAAAAGGAAAAGGGAAAGUAUUAUGUUACGCCGUUCGGAUCUGCACUU,-0.0902
CCUGUGCUACACAUCGUAUGUACCGAAUCAAACCCCCCCAAAUUUUUUUAAAUUUUUAAAAAAGUAUUAUGUUACGCCGUUCGGAUCUGC,-0.705
UCAAGUCCUGUGCUACACAUCGUAUGUACCGAAUCGGGGCCGGGCCGGGGCCGGGAAAGUAUUAUGUUACGCCGUUCGGAUCUGCACUUC,-1.12
UGGCCCUGGUGGCAUGCGGGGAGGAAGAGGUGGCCUCAGGGAUCGUGGUGGUCCCGGUGGAAUGUUCAGAGGUGGCCGUGGUGGAGACAG,1.07
GUCCUGUGCUACACAUCGUAUGUACCGAAUCGGAAAAAAAGGUUUUUUUGGAAAAAGGAAAGUAUUAUGUUACGCCGUUCGGAUCUGCAC,-0.356
UGGGAGGUGGAUUUUGUUUAUUUUUUUAGAUCAUUUCCAGGGGUGGGAAUUUUUUUUUAAUAUGUGUCAUGAAUAAAGUUGUUUUUGAAA,2.37

# For quick reference, copied from above (study 2):
Change,relative binding score [%]
Y53W,96.9
L166F,81.1
E174L,89.4
R155Q,94.5
T106G,83.6
V136G,61.9
H55S,96.1
A175F,96.2
V143P,1.49
I172M,90.7
V40I,87.2
